Measurements pooled from the literature.
Parts stem from different laboratories: compare values within a part only. Substitutions count along the parent as printed.

Series 1 — method: DHFR PCA, deep sequencing; matrix: yeast; added: (+)-ABA 710 µM; reference: wild-type fitted maximum; direction: higher = stronger binding
Target: ABI1, truncated, D143A, DHFR fusion (Arabidopsis thaliana)
Setting: methotrexate growth selection, single substitutions
Starting sequence: PYL1, truncated, DHFR fusion (Arabidopsis thaliana); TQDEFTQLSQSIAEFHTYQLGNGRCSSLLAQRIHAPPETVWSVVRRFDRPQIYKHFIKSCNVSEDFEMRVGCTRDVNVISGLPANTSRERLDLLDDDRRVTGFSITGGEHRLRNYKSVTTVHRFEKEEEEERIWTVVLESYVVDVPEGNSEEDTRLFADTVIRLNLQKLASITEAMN; partner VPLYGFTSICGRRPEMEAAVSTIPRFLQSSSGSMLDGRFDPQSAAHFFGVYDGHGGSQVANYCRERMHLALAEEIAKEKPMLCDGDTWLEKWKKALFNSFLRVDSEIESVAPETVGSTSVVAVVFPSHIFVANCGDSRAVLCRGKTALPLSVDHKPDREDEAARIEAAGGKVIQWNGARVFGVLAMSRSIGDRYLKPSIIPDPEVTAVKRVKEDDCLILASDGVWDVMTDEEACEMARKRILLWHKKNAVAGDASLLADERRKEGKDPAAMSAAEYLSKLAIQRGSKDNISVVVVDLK
Change | relative binding score
E152M | 99.1%
T135P | 15.5%
N165L | 3.37%
P83V | 26.9%
V118A | 90.2%
A35N | 46.2%
Y115N | 6.46%
E139L | 91.9%
T1V | 104%
S9K | 108%
E128R | 105%
V145F | 64.7%
S150F | 80%
N61I | 100%

Series 2 — target: CCNB3, cyclin fold, Cln2 fusion (human); method: yeast growth competition, sequencing; matrix: yeast; setting: weak parent motif; reference: not given; direction: higher = stronger binding
Starting sequence: CDKN1B docking peptide (human); PSACRNLFGPVDH; partner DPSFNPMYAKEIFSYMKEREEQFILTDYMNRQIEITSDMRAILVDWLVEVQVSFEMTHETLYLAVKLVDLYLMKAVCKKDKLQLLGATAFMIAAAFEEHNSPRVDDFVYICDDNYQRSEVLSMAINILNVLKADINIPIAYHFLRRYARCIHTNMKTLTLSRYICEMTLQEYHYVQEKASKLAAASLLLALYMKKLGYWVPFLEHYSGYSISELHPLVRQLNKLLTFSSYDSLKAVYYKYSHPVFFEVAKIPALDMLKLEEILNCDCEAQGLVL
Change | normalised enrichment score
PSASRNLFGPVDH [C4S] | 0.408
PSACRNMFGPVDH [L7M] | 0.228
PSACRNLFGPVDD [H13D] | 0.13
PSACRNLFGPVDN [H13N] | 0.237
PSAGRNLFGPVDH [C4G] | -0.0885
PSACRNLFGHVDH [P10H] | 0.184
PSAARNLFGPVDH [C4A] | 0.378
PLACRNLFGPVDH [S2L] | 0.515
PSANRNLFGPVDH [C4N] | 0.526
PSNCRNLFGPVDH [A3N] | 0.45
PSACRNLFGPVDV [H13V] | 0.438
PSACRGLFGPVDH [N6G] | 0.163
PSACRMLFGPVDH [N6M] | 0.347
PSACRNLFWPVDH [G9W] | 0.0771
QSACRNLFGPVDH [P1Q] | 0.424
PSACRNLFGPGDH [V11G] | 0.358
PSACRLLFGPVDH [N6L] | 0.582
RSACRNLFGPVDH [P1R] | 0.229
PSACRNLFHPVDH [G9H] | 0.414

Series 3 — method: RNA Bind-n-Seq; form: RNA; matrix: in vitro; concentration: not given; reference: input RNA pool; direction: higher = stronger binding
Target: RING finger protein unkempt homolog, zinc fingers 1-6, GST-SBP tag (UNK, Homo sapiens, UniProt Q9C0B0, residues 30-357)
UniProt Q9C0B0, sequence (30-357, looked up): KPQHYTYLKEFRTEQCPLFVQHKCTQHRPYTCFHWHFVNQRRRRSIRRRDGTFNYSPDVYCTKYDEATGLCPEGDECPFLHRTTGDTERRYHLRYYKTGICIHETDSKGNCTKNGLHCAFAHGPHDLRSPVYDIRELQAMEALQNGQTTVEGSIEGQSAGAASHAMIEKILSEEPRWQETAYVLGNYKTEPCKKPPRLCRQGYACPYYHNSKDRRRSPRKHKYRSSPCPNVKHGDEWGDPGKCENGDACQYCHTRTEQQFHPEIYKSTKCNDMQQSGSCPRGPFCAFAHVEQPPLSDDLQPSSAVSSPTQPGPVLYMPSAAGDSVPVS
Setting: RNA with constant flanks, human-mouse chimeric sites, ends assumed
Oligonucleotide | bound/input enrichment [ratio]
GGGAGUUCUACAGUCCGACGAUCCAGCCUCAGAGCCCAGACUUCCUGGAUAUUACCAACCCUAAAGCGGUAUUAGAAAACGCAUUGAGAAACUUCGCCUGUCUGACCACCGGAGAUGUGAUUGCUAUCAACUACAAUGAGAAGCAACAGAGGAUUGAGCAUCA | 0.402
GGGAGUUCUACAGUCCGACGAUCAAUUUCCUGUCAUACUUUUUAGACAUUCACAUCAGACUUACAGAGCACCUGGCCACAUUCUAGUUUUGUGUUAUUUCUCAGCUAUGGAUAUGAUCAAAUGAGAACACUGCUUAACUAAUGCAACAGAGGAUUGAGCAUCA | 0.428
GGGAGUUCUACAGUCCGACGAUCACAGUUAUAUUGUUGAGUUUCAUUUUCAUAUAUUCUUGUAGUGUCUGCUUGCCUGUGACUUCUGGUAAAAUAAGACUUUAAAAUUACAAUAUUUUAGCAUGGUAUUUAACAUUUUCUAAACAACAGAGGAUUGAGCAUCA | 6.97
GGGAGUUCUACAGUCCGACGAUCCGCUGGCCCAAGCUGAUGGACUCUGAUCUUGAUCUCUUCUCAGGCACGUGUGCCUUCUCUUAGUCCCUUCUGGGUUGAUGUUAUGAAUCUCAGUACUGUGGUUUGAAAGCACCAGCUUUGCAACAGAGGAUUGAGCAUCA | 0.389
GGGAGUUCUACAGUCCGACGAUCGACCCACAGUGGUCUGAGGAACAGCUGAUUGCUGCAAAAUUCUGUUUUGCUGGCCUUGUUAUAGGGCAGACUGAAGUGGACAUCAUGAGUCAUGCCACACAAGCUAUUUUUGAAAUUCUGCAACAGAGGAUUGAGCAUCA | 0.261
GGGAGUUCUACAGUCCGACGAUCGCUCUUGGGAAUGUAAUCAGCGCCUUGGGGGACAAGAGCAAGAGAGCCACCCAUGUCCCUUACAGAGACUCUAAGCUGACAAGACUCCUACAGGAUUCCCUUGGGGGUAAUAGCCAAACCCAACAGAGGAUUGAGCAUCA | 0.22
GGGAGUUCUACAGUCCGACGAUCAAAGAGUGGAUAGAGUGUGCACAUGGAAUCGGUGGGACCCGGGCGAAAAAGGAGUGCAAGAUAGAGUAUGAUGAUUUCGAAGAGUGCUUGCUUCGGUACAAAACGAUGAGGCGAAUGCAUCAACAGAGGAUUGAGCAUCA | 0.927
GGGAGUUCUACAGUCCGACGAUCGAUCUCGGGCCCUCCCCAGGGGCCUCCUUUCGUAUAGUCACUGCUUCUGCAUCAGAUACUUUCAGCUGCAACUCCCUGCAGGGUGGGGCACCCAUUUCAGGCAGAAGGUUUUGGUACCCUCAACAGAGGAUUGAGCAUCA | 0.222

Series 4 — method: protein-binding microarray; form: double-stranded DNA, one strand shown; matrix: in vitro; concentration: 940 nM top; setting: 60-bp whole probe; added: salmon DNA 0.4 mg/ml; reference: random background probes; direction: higher = stronger binding; shared flanks, not repeated: GCCTAGCAC … GTCTTGATTCGCTTGACGCTGCTG
Target: Interferon regulatory factor 5, full length, phosphomimetic (IRF5, Homo sapiens, UniProt Q13568-2, residues 1-514, S451D/S453D/S456D/S462D)
Oligonucleotide | fitted relative affinity
GACAGACTGCTTCTCCTGACGTGCTAG | 0.00965 z-score
TCACCTTTTCTTTACTGACTGTGCTAG | 2.07 z-score
GACGAACTGGGGTTTCGATACGTGCTA | 5.02 z-score
GACAGACTGGGTATCGGGACGTGCTAG | 0.866 z-score
TTAGGTTTCGGATATCGGTTAGTGCTA | 9.03 z-score
TTAGGTATCGACACTGGGTTCGTGCTA | 5.22 z-score
TTAGGTTTCGGGCCTGGGTTAGTGCTA | 7.45 z-score
TTAGATCTCAGGCTCGATTAGTGCTAG | -0.182 z-score
TTTCCTATGTCATTTACATTGTGCTAG | 1.16 z-score
GACGATCTGGGGACTGGAGACGTGCTA | 0.09 z-score
GACGGTCCCGGTATCGGGACGTGCTAG | 2.02 z-score
TAGAAACTCGTGTTTTTCTCCGTGCTA | 0.415 z-score
GTGCTTCACAGAGGCGGCTGGTGCTAG | -0.586 z-score
GATGATCTCAGTCTCGAGACGTGCTAG | 1.64 z-score
GACGATATCAGTATCGAGAGGTGCTAG | 1.53 z-score
ATATATATTATATATACACATGTGCTA | 0.42 z-score
GACGATTTCATTTTCGAGACGTGCTAG | 1.78 z-score
TATTGTCTCCCCCATCTTGTTGTGCTA | 1.12 z-score
TCATCTTTACTGCTCCAACTGTGCTAG | 1.02 z-score

Some of these lines once more (series 2):
Change | normalised enrichment score
PSACRNLFGPGDH [V11G] | 0.358
PSANRNLFGPVDH [C4N] | 0.526
PSACRNLFGPVDN [H13N] | 0.237
PSACRLLFGPVDH [N6L] | 0.582
PSAGRNLFGPVDH [C4G] | -0.0885
